Measured values from different studies.
Compare with care: the assays were run in different laboratories. Numbers after ± are the reported error.

COc1ccc(NC(=O)Cn2c(=O)c3ccccc3n(CC(=O)Nc3cc([125I])c(OC)cc3OC)c2=O)cc1
tissue uptake (Wistar rat (normal), thymus; intravenous, 0.08333 h): 0.1 ± 0.01 %ID/g

CN(C)c1ccc(C(=O)NCCCCN2CCN(c3ccccc3O[11CH3])CC2)cc1
tissue uptake (male Sprague Dawley rat, fat; iv, 5 min; reference: untreated): 0.024 ± 0.009 %ID/g

COc1cc2ccnc(Cc3ccc(O[11CH3])c(OC)c3)c2cc1OC
tissue uptake (Sprague-Dawley rats, lung; intravenous, 0.5 h): 0.104 ± 0.017 %ID/g

CCN(CC)c1ccc2c(-c3ccccc3C(=O)OCCC[18F])c3ccc(=[N+](CC)CC)cc-3oc2c1
tissue uptake (rat, lung; 60 min): 1.58 ± 0.19 %ID/g

O=C(c1ccc(F)cc1)C1CCN(C2Cc3c(cccc3OCC[18F])CC2O)CC1 (single isomer, unassigned; (-))
tissue uptake (Sprague-Dawley rat, male, kidney; intravenous, dose not given, 30 min): 0.883 ± 0.068 %ID/g

CCN(CC)c1ccc2c(-c3ccccc3C(=O)OCCOCC[18F])c3ccc(=[N+](CC)CC)cc-3oc2c1
tissue uptake (rat, liver; 60 min): 0.49 ± 0.04 %ID/g

CCNc1cc2[o+]c3cc(NCC)c(C)cc3c(-c3ccccc3C(=O)OCCOCC[18F])c2cc1C
tissue uptake (rat, blood; 15 min): 0.13 ± 0.03 %ID/g

O=C(O)CCCN1CCN2CCN(CC1)CC(=O)[O][Al]([18F])[O]C(=O)C2
tissue uptake (Sprague-Dawley rat, renal pedicle ligation, kidney; 60 min): 0.4 ± 0.1 %ID

A few entries again:
CN(C)c1ccc(C(=O)NCCCCN2CCN(c3ccccc3O[11CH3])CC2)cc1
tissue uptake (male Sprague Dawley rat, fat; iv, 5 min; reference: untreated): 0.024 ± 0.009 %ID/g
